Assay results gathered from unrelated publications.
Every numbered part comes from another study and shows a few of its results, in no order. Positions count from the first letter of the parent shown.

Set 1
Target: Histone acetyltransferase KAT6A, winged helix 2, GST fusion (KAT6A, Homo sapiens, UniProt Q92794, residues 85-181)
Technique: protein binding microarray
Molecule type: double-stranded DNA, one strand shown
Matrix: in vitro
Tested at: not given
Notes: 8-mer, flanks averaged, mean of 2 arrays, mostly near background
Relative to: not given
Reading: higher = stronger binding
Construct (chain): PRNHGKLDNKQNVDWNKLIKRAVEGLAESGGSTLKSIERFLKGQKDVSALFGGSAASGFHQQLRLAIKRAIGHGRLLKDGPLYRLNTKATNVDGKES
Oligonucleotide	E-score
GTGCATTA	0.0918
CCGCGGAA	0.17
CATATGCA	0.0436
ACTCGTCC	0.00709
ACCTGCGA	0.0809
AGAGATCC	0.0452
AAGACGCA	0.0564
GCCCGCCA	0.0915
AACGGTGG	-0.0841
CACCCGAG	0.133

Set 2
Molecule: PhoQ, residues 284 288 289 292 302 303 GLASVI
Technique: Sort-seq
Measured: YFP reporter
Matrix: E. coli
Notes: PhoQ-PhoP variant library
With: 10 µM Mg2+
Relative to: high Mg2+ state
Reading: higher = stronger signaling
target	fold induction
PhoP, residues 12 14 15 18 19 SHWTV (Escherichia coli, UniProt P23836)	17.7
PhoP, residues 12 14 15 18 19 QYCSL (Escherichia coli, UniProt P23836)	4.81
PhoP, residues 12 14 15 18 19 STHWV (Escherichia coli, UniProt P23836)	2.18

Set 3
Target: Ras GTPase-activating protein-binding protein 1, full length (G3BP1, Homo sapiens, UniProt Q13283)
Chain of UniProt Q13283 (whole entry, looked up): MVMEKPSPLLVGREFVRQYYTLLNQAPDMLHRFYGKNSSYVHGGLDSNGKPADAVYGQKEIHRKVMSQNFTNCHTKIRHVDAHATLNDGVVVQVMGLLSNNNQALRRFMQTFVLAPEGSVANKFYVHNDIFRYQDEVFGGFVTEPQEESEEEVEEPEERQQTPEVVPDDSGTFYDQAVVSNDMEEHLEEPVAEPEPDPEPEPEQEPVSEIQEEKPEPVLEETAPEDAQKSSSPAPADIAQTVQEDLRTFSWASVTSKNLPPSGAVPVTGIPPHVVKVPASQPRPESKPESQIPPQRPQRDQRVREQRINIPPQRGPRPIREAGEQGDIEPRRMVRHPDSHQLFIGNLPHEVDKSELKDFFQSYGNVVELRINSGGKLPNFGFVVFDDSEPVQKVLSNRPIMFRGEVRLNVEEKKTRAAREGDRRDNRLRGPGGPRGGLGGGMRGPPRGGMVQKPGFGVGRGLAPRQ
Technique: RNA Bind-n-Seq
Molecule type: RNA
Matrix: in vitro
Tested at: 200 nM
Notes: whole 134-nt RNA, ends assumed
With: 150 mM LiCl
Relative to: input library
Reading: higher = stronger binding
Library: 7-deaza-guanosine replaces G
All sequences stand within: GGGAGUUCUACAGUCCGACGAUC … UGGAAUUCUCGGGUGUCAAGG
Oligonucleotide	log2 enrichment
AAGUCCUGUGCUACACAUCGUAUGUACCGAAUCGGGUUUUUGGGAAAAAGGGAGGGAAAGUAUUAUGUUACGCCGUUCGGAUCUGCACUU	-0.553
UGGGAGGUGGAUUUUGUUUAUUGUUUUAGCUCAUUUCCAGGGGUGGGAAUUUUUUUUUAAUAUGUGUCAUGAAUAAAGUUGUUUUUGAAA	-0.163
CACAGACAACAAACACCCACACAGACACAGAGGGAAGGGGUUGGGAUGGGGACAGGGUGCACAGCAGGGCGGGGUAGGACCCCAGCCCCU	0.337
CAAGUCCUGUGCUACACAUCGUAUGUACCGAAUCGGGGCCCGGGCCCGGCCCGGGAAAGUAUUAUGUUACGCCGUUCGGAUCUGCACUUC	-0.644
CUGUGCUACACAUCGUAUGUACCGAAUCGGGAAAAAAAGGGAAAAAAAGGGGAAAAAAAGGGAAAGUAUUAUGUUACGCCGUUCGGAUCU	0.118
AAGUCCUGUGCUACACAUCGUAUGUACCGAAUCGGAAAAAGGUUUUUGGUUUUUGGAAAGUAUUAUGUUACGCCGUUCGGAUCUGCACUU	-2.44
UCAAGUCCUGUGCUACACAUCGUAUGUACCGAAUCGGGGCCCGGCCCGGCCCGGAAAGUAUUAUGUUACGCCGUUCGGAUCUGCACUUCC	-0.522
UUCACUCUUUGAAGGAACGUGGUACUUAGUUAGGGUGGAUGAAAAGCACAGAAGAACUUACGCUCGGCGUCCCACUCCAAAUGAUGACAC	0.149

Set 4
Target: CCNB3, cyclin fold, Cln2 fusion (human)
Technique: yeast growth competition, sequencing
Matrix: yeast
Notes: weak parent motif
Relative to: not given
Reading: higher = stronger binding
Parent: CDKN1A docking peptide (human); SKACRRLFGPVDS; partner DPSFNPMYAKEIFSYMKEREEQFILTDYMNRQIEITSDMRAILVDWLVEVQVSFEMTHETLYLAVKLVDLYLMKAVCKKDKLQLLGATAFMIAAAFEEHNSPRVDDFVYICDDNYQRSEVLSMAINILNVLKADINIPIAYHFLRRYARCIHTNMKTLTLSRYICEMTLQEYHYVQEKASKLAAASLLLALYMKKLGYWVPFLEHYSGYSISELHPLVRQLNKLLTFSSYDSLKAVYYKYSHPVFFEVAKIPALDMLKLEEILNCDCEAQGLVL
Change	normalised enrichment score
SKAWRRLFGPVDS [C4W]	0.715
SKACMRLFGPVDS [R5M]	0.233
SKACRRLFGPPDS [V11P]	0.234
SKACARLFGPVDS [R5A]	0.177
SKACRRWFGPVDS [L7W]	0.432
SKACRRLFGPVVS [D12V]	0.38
SKACRRLYGPVDS [F8Y]	-0.0687
SKACRRLFGPVLS [D12L]	0.433

For quick reference, copied from above (set 1):
Oligonucleotide	E-score
CATATGCA	0.0436
AACGGTGG	-0.0841
AAGACGCA	0.0564
